# Published values gathered from unrelated publications.
# Lines come from different studies, so protocols differ. “And” joins repeats or separate records; there may be more than shown. ± marks the error that the study gave.
Structure (SMILES),cell line,test,test system,setting,how to read,measurement,result
CC(=O)OC[C@H]1O[C@@H](Sc2sc(C(=O)c3ccc(Br)cc3)c(N)c2-c2nc3ccccc3s2)[C@H](OC(C)=O)[C@@H](OC(C)=O)[C@H]1OC(C)=O,FRhK-4,,,72 h,,non-toxic concentration,90 µg/mL
Cc1nc(C)c(C=[N+]([O-])C(C)(C)C)nc1C,rat primary midbrain neurons,MTT,,"30 to 300 µM, 24 h",,cytotoxicity,not toxic
CC(=O)O[C@@H]1C[C@H]2C(C)(C)[C@H](O)CC[C@]2(C)[C@H]2CC[C@]34C[C@]3(CC[C@H]4[C@@H](C)C[C@@H](O)[C@H](O)C(C)(C)O)[C@@]21C,fibroblasts,MTT,,concentration not given,,cytotoxicity,not toxic
O=c1[nH]c2ccccc2nc1/C=C/C=C/c1ccccc1,HL7702,"cell viability, MTT",,72 h,,IC50,> 100 µM
COc1ccc(C(=O)/C=C/c2ccc3c(c2)OCO3)c(OC)c1,HEK293 empty vector pcDNA3.1,"cell growth, MTT",,"72 h, 10% FBS",,GI50,11.7 ± 1.8 µM
CC(C)=CCc1cc2c(cc1O)OCc1c-2oc2c(CC=C(C)C)c(O)ccc12,3T3-L1,MTT,,concentration not given,,viability,94.4 ± 0.5%
CCCCCCCCCCCC(=O)NCCC(=O)N[C@@H](CCCNC(=N)N)C(=O)N[C@@H](CCCNC(=N)N)C(=O)N[C@@H](CCCNC(=N)N)C(=O)N[C@@H](CCCNC(=N)N)C(=O)N[C@H](CCCNC(=N)N)C(=O)N[C@H](CCCNC(=N)N)C(=O)N[C@H](CCCNC(=N)N)C(=O)N[C@H](CCCNC(=N)N)C(=O)N[C@H](CCCNC(=N)N)C(=O)N[C@@H](CCCCNC(=S)Nc1ccc2c(c1)C(=O)OC21c2ccc(O)cc2Oc2cc(O)ccc21)C(N)=O,Jurkat,flow cytometry,,"10 µM, 48 h, loaded 10 min at 37 °C, then washed","baseline: 0 h, higher = more retained",retained fluorescence,~20%
C=C(C)[C@@H]1CC[C@]2(C(N)=O)CC[C@]3(C)[C@H](CC[C@@H]4[C@@]5(C)CCCNC(C)(C)[C@@H]5CC[C@]43C)[C@@H]12,C-33 A,"cell viability, CellTiter-Glo",,,,CC50,5.16 µM
COc1cc(/C=C/C(=O)c2ccc3c(c2)OCO3)ccc1OCc1ccccc1,HEK293 empty vector pcDNA3.1,"cell growth, MTT",,"72 h, 10% FBS",,GI50,17.5 ± 1.2 µM
COc1ccc([C@@H]2CC(=O)c3c(O)cc(O[C@@H]4O[C@H](CO[C@@H]5O[C@@H](C)[C@H](O)[C@@H](O)[C@H]5O)[C@@H](O[C@H]5O[C@H](CO)[C@@H](O)[C@H](O)[C@H]5O)[C@H](O)[C@H]4O)cc3O2)cc1O,MRC5,"cell growth or viability, MTS",,"100 µg/mL, 72 h",,viability,62.2%
O=c1c(-c2nc3ccccc3s2)cc2c(n1NS(=O)(=O)c1ccc(Cl)cc1)CCCCCC2,FRhK-4,trypan blue,,72 h,,maximum non-toxic concentration,130 µg/mL
Cc1[nH][n+]([Pt-2]([Cl])([n+]2[nH]c(C)c(CSCc3ccccc3)c2C)[n+]2[nH]c(C)c(CSCc3ccccc3)c2C)c(C)c1CSCc1ccccc1.Cl,Jurkat,"cytotoxicity, 7-AAD flow cytometry",,24 h,,IC50,0.07 µM
COc1ccc(OC)c(/C=C/C(=O)c2ccc3c(c2)OCO3)c1,HEK293 empty vector pcDNA3.1,"cell growth, MTT",,"72 h, 10% FBS",,GI50,8.1 ± 1.3 µM
CC(=O)OC[C@H]1O[C@@H](Sc2sc(C(=O)c3ccc(C)cc3)c(N)c2-c2nc3ccccc3s2)[C@H](OC(C)=O)[C@@H](OC(C)=O)[C@@H]1OC(C)=O,FRhK-4,,,72 h,,non-toxic concentration,90 µg/mL
CC1(C)CC[C@]2(CO)CC[C@]3(C)C(=CC[C@@H]4[C@@]5(C)CCCNC(C)(C)[C@@H]5CC[C@]43C)[C@@H]2C1,primary HFF,"cell viability, CellTiter-Glo",,HCMV AD169 assay setting,,CC50,3.49 µM
FC(F)(F)c1ccnc(-c2cc(C(F)(F)F)ccn2)c1.FC(F)(F)c1ccnc(-c2cc(C(F)(F)F)ccn2)c1.[Cl-].[Cl-].[Ru+2].c1cnc2c(c1)ccc1cccnc12,SK-MEL-28,resazurin,,"concentration not given, normoxia, visible light",,photocytotoxicity,inactive
NC(COc1cc(C(F)(F)F)cc(C(F)(F)F)c1)c1ccccc1 (stereo not shown),normal iPSC cardiomyocytes,kinetic imaging cytometry,,"5 min, pH 7.4",,beating cessation concentration,133 µM
COC(C)(C)/C=C/C[C@@](C)(O)[C@H]1CC[C@]2(C)[C@@H]1CC[C@@H]1[C@@]3(C)CCC(=O)C(C)(C)[C@@H]3CC[C@]12C,HEK293-A,"cell growth or viability, SRB",,,,IC50,24.5 µM
O=C(CN1CCN(C(=O)CC23CC4CC(CC(C4)C2)C3)CC1)NC1CCN(S(=O)(=O)c2cc(C(=O)Nc3cc(F)c(F)c(F)c3)ccc2F)CC1,HepAD38,cytopathic effect,human hepatoma cells,,,maximum non-toxic concentration,10 µmol/L
CC(=O)OC[C@H]1O[C@@H](Sc2sc(C(=O)c3ccc(Cl)cc3)c(N)c2-c2nc3ccccc3s2)[C@H](OC(C)=O)[C@@H](OC(C)=O)[C@@H]1OC(C)=O,FRhK-4,,,72 h,,non-toxic concentration,80 µg/mL
CC(C)[C@H](NC(=O)[C@H](CCC(=O)O)NC(=O)[C@H](CCC(=O)O)NC(=O)[C@@H]1Cc2ccc(O)cc2CN1C(=O)[C@H](CCC(=O)O)NC(=O)[C@H](CC(=O)O)NC(=O)[C@H](CC(=O)O)NC(=O)[C@H](CCC(=O)O)NC(=O)[C@@H](CCCNC(=N)N)NC(=O)[C@@H](CCCNC(=N)N)NC(=O)[C@@H](CCCNC(=N)N)NC(=O)[C@H](C)N(C)C(=O)[C@H](Cc1ccccc1)NC(=O)[C@@H](NC(=O)[C@H](Cc1ccccc1)NC(=O)[C@H](C)NC(=O)[C@H](CCCNC(=N)N)N(C)C(=O)[C@@H]1CCCN1C(=O)[C@H](CCCNC(=N)N)NC(=O)CNC(=O)c1ccc2c(c1)C1(OC2=O)c2ccc(O)cc2Oc2cc(O)ccc21)[C@@H](C)O)C(N)=O,A-431,,,"time not given, added: EGF",,reporter degradation,71.2 ± 1.1%
CC(=O)[O-].Nc1ccc(C([O-])=NN=Cc2ccc(OCC(=O)Nc3ccc(Cl)cc3)cc2)cc1.[Ni+2],WISH,"cytotoxicity, MTT",,24 h,,IC50,18.3 ± 1.8 µM
O=c1c(-c2nc3ccccc3s2)cc2c(n1NS(=O)(=O)c1ccccc1)CCCCCC2,FRhK-4,trypan blue,,72 h,,maximum non-toxic concentration,140 µg/mL
C=CC1=C(C)C2=NC1=Cc1c(C)c(CCC(=O)O)c3[n]1[Sn][n]1c(c(C)c(C=C)c1=C2)=CC1=NC(=C3)C(CCC(=O)O)=C1C,Huh5.15 replicon cells,MTT,,"10 or 20 µM, 48 h",,viability reduction,12 to 19%
O=C(Nc1cc(F)c(F)c(F)c1)c1ccc(F)c(S(=O)(=O)N2CCC(NC(=O)C3CCC4(CC3)CCN(C(=O)CC35CC6CC(CC(C6)C3)C5)CC4)CC2)c1,HepAD38,cytopathic effect,human hepatoma cells,,,maximum non-toxic concentration,15 µmol/L
CC(C)=CCc1cc([C@@H]2CC(=O)c3c(O)cc(O)c(CC=C(C)C)c3O2)cc(CC=C(C)C)c1O,3T3-L1,MTT,,concentration not given,,viability,80.8 ± 1.2%
CC(=O)O[C@@H]1[C@@H](OC(C)=O)[C@H](Sc2sc(C(=O)c3ccc(Cl)cc3)c(N)c2-c2nc3ccccc3s2)OC[C@H]1OC(C)=O,FRhK-4,,,72 h,,non-toxic concentration,80 µg/mL
[NH-]c1c([I+]c2ccccc2)c(=O)oc2ccccc12,BHK-21,MTT,,,,maximal non-toxic concentration,1 µg/mL
Cc1ccc(S(=O)(=O)Nn2c3c(cc(-c4nc5ccccc5s4)c2=O)CCCCCC3)cc1,FRhK-4,trypan blue,,72 h,,maximum non-toxic concentration,130 µg/mL
Cc1ccc(C(=O)c2sc(S)c(-c3nc4ccccc4s3)c2N)cc1,FRhK-4,,,72 h,,non-toxic concentration,90 µg/mL
CCOC(=O)c1cc(-c2nc3ccccc3s2)c(=O)n(NS(=O)(=O)c2ccc(Cl)cc2)c1N,FRhK-4,trypan blue,,72 h,,maximum non-toxic concentration,130 µg/mL
COc1c2c(cc3c1[C@@H]1Oc4c(ccc(O)c4CC=C(C)C)[C@@H]1CO3)OC(C)(C)C=C2,3T3-L1,MTT,,concentration not given,,viability,43.1 ± 0.4%
CC(=O)O[C@@H]1[C@@H](OC(C)=O)[C@H](Sc2sc(C(=O)c3ccc(Br)cc3)c(N)c2-c2nc3ccccc3s2)OC[C@@H]1OC(C)=O,BGM,cytotoxicity,,72 h,,maximum non-toxic concentration,90 µg/mL
O=C1c2ccccc2C2(c3ccc(O)cc3Oc3cc(O)ccc32)N1CCS(=O)(=O)O,hRMEC monolayer,,,"100 µM, 360 min, apical to basolateral",,Papp,10.7 ± 0.36 ×10⁻⁶ cm/s
Nc1c(C(=O)c2ccc(Cl)cc2)sc(S)c1-c1nc2ccccc2s1,BGM,cytotoxicity,,72 h,,maximum non-toxic concentration,70 µg/mL and 80 µg/mL
O=C(CC1CCN(C(=O)CC23CC4CC(CC(C4)C2)C3)CC1)NC1CCN(S(=O)(=O)c2cc(C(=O)Nc3cc(F)c(F)c(F)c3)ccc2F)CC1,HepAD38,cytopathic effect,human hepatoma cells,,,maximum non-toxic concentration,2 µmol/L
CCCCCCCCCc1nc2cc(Cl)ccc2c(=O)n1CCCN,Jurkat,,medium with 10% FBS,"above 6.3 µM, 24 h",,LDH release,~30%

# Excerpt of the above:
Structure (SMILES),cell line,test,test system,setting,how to read,measurement,result
CC(C)=CCc1cc2c(cc1O)OCc1c-2oc2c(CC=C(C)C)c(O)ccc12,3T3-L1,MTT,,concentration not given,,viability,94.4 ± 0.5%
Nc1c(C(=O)c2ccc(Cl)cc2)sc(S)c1-c1nc2ccccc2s1,BGM,cytotoxicity,,72 h,,maximum non-toxic concentration,70 µg/mL and 80 µg/mL
CC(=O)OC[C@H]1O[C@@H](Sc2sc(C(=O)c3ccc(C)cc3)c(N)c2-c2nc3ccccc3s2)[C@H](OC(C)=O)[C@@H](OC(C)=O)[C@@H]1OC(C)=O,FRhK-4,,,72 h,,non-toxic concentration,90 µg/mL
O=c1[nH]c2ccccc2nc1/C=C/C=C/c1ccccc1,HL7702,"cell viability, MTT",,72 h,,IC50,> 100 µM
